# Assay results pooled from the literature.
# Numbered parts are unrelated; each lists some results of a single study.

# Set 1
# Target: RING finger protein unkempt homolog, zinc fingers 1-6, GST-SBP tag (UNK, Homo sapiens, UniProt Q9C0B0, residues 30-357)
# Technique: RNA Bind-n-Seq
# Molecule type: RNA
# Medium: in vitro
# Concentration: not given
# Notes: RNA with constant flanks, human-mouse chimeric sites, ends assumed
# Relative to: input RNA pool
# Direction: higher = stronger binding
# Constant ends, left off below: GGGAGUUCUACAGUCCGACGAUC … CAACAGAGGAUUGAGCAUCA
# Construct (chain): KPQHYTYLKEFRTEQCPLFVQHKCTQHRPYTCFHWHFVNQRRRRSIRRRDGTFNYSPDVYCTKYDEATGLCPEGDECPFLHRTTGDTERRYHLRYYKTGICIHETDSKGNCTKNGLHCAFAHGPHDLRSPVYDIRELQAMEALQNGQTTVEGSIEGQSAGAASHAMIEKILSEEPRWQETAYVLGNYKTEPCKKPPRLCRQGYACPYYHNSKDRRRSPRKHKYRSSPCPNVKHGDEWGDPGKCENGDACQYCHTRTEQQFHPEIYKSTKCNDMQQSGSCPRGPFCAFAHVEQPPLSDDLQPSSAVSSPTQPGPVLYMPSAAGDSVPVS
Strand,bound/input enrichment [ratio]
AUGGAGAAGGAUUCUCUGCCCCGCUUUGUGCGCUCUGAAUUUUAUAAGGAGCUAAUCAAGUAGUCAUUUAGCCAGGCUAUGAAAUCAUGCCCUGUGAGUUGAGUUACAUCCUUUGUAGCA,0.503
AAAGUGAUGACUAUGUUUGUACAGCGACAGGUAUUUUCGGAGAGCAAAGAUGAGAUUGCUUUAGUCCUCUAUGGCACAGAUGGCACUGAUAAUGCCCUUGCUGGCAAGGACCAGUAUCAG,0.267
GCCACCAGAUCCCAGAAACAUGACCCUUGCAGCCUAUAAAGAGAAGAUGAAGGAACUCCCGCUGGUGUCCUUGUUCUGCUCCUGCUUCCUGGCCGAUCCCCUGAAUAAGUCGUCCUACAA,0.317
CAACAGAGUCUAGGAUGGGUUCAUUACAUGAUUCAUGAGCCAGAACCGCAUAUUCUUCUCUUUAGACGACCUCUUCCAAAAGAUCAACAAAAAUGAAGUUUAUCUGGGAUCAUCUAAUCU,0.158
GUACUGCAGCAGCAGGGAAAACUGCAGGAAGCUCUGAUGCAUUAUAAGGAGGCUAUUCGAAUCAGUCCUACCUUUGCUGAUGCUUAUUCCAAUAUGGGAAACACUCUAAAGGAGAUGCAG,0.169
GGCCUGGGACCGUCCUGGCUAGUGCAAAAUAGCGGCAUGGAGGCUCAGAGAGGAAAGUUUGUUAGUGGAGGCAGUGGUAGAGGCCGUCAUGUACGGUCCUUUACUCGAUAGAUGUGUUCU,0.627
GAUCAUGAACCACCAUCAGAAAUGAAGAUGAGAUUACCCAAGACGAGCAAAACAGCUGCGCUACAGAAAAGUAAACUUAACCUUGCAGAGUUCCUUAAAUGAAGAUCAAGUUAAGAGAGC,0.277
GUUGCCAGGUUCCGGUGCCGUUGGGCUCGGUUCUCUCCUGAGCUACGUGUCUCUACGCUCUCAAUCCGCCAUCCAACAAACAUGGAUCAGGUAAUGCAGUUUGUGGAUGAGCCAAGUCAG,0.0316

# Set 2
# Target: Replicase polyprotein 1ab, main protease (rep, Severe acute respiratory syndrome coronavirus 2, UniProt P0DTD1)
# Effect on: enzyme activity
# Mode: inhibitor
# Concentration: 20 µM
# Notes: hit confirmation
SMILES,inhibition [%]
Nc1cc(-c2ccncc2)c[nH]c1=O,40.6
CN1C(=O)C(N2CCCCC2)S/C1=C\C(=O)O (stereo not drawn),72.9
Cc1ccc(-n2sc3ccccc3c2=O)cc1,111
O=C1NC(=O)C(c2ccccc2)N1 (stereo not drawn),69.8

# Set 3
# Target: Protein max, full length (MAX, Homo sapiens, UniProt P61244-2, residues 1-151)
# Technique: protein-binding microarray
# Molecule type: double-stranded DNA, one strand shown
# Medium: in vitro
# Concentration: not given
# Notes: k-mer, scored over probes, only values ≥0.25
# Direction: higher = stronger binding
Strand,E-score
CACGTTTA,0.358
CGTGTTAC,0.349
AACGCATG,0.453
CGGCGTGC,0.393
ACGTGACC,0.452
GCATGGCC,0.408
ATGTGGTC,0.339

# Set 4
# Cell line: HEK-293T
# Effect on: pseudovirus infection
# Organism: VSV pseudotyped with SARS-CoV-2 spike
# Concentration: 10 µM
# Time: 16 h
# Relative to: vehicle-treated
SMILES,GFP-positive cells
CC(C)c1nc(N(C)S(C)(=O)=O)nc(-c2ccc(F)cc2)c1/C=C/[C@@H](O)C[C@@H](O)CC(=O)O,91.6%
NC(=O)OCC(COC(N)=O)c1ccccc1,92.3%
CCOC(=O)c1ncn2c1CN(C)C(=O)c1cc(F)ccc1-2,69%
CN(Cc1cnc2nc(N)nc(N)c2n1)c1ccc(C(=O)N[C@@H](CCC(=O)O)C(=O)O)cc1,29.9%
CCOC(=O)c1ccc(C#Cc2ccc3c(c2)C(C)(C)CCS3)nc1,157%

# Set 5
# Target: RNA binding protein fox-1 homolog 2, RRM domain, GST-SBP tag (RBFOX2, Homo sapiens, UniProt O43251-10, residues 100-194)
# Technique: RNA Bind-n-Seq
# Molecule type: RNA
# Medium: in vitro
# Concentration: 365 nM
# Notes: natural RNA segment, single round, ends assumed
# Relative to: no-protein control
# Direction: higher = stronger binding
# Constant ends, left off below: GGGAGUUCUACAGUCCGACGAUC … UGGAAUUCUCGGGUGCCAA
# Construct (chain): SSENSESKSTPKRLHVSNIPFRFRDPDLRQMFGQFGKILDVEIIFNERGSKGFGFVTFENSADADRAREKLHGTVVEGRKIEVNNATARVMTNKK
Strand,RBNS enrichment (R)
ACAAACACUGGACACCAUCACCUCUUUGGAACUGCCAGACCCUGGGAGUUCCCAGCGCGAAAGGUCUGCUCCCGUUCCUCUGUCUCUGUGAAUAAAUGUGAGUUCGUGCA,0.498
UUUUUUUUUAACUGUAGGGAAGCAGCCCUGACCUUACCUCUCCACUCCUGUCCCGGGAGCUCUCAAUGCUAUCCUGGAUUGCCUCGUACCAGUCAGAGGUCAGGACUCCA,0.576
GUGAUUCUGCUCUCCAGGGACGGUUGGCACCUUCCUCGGGGGCGGGCCCCACGCACCCCAGAACACACAGACCCACCUUUCUGGCGUUCUUUCUACCUCCCUUUUCGUUG,0.462
AUACAACUGGUAAAGGACGUUUUCUUGAGAGUUUUAACUAUAUGUAAACAUUGUAUAAUGAUAUGGAAUAAAAUGCACAUUGUAGGACAUUUUCUAAAUUUGGUGGUCCU,0.232
AUGCCCUGUGCCUCUUGAGCAGAAAAGAGCACUGACAACUGGGACACCUGGCUCUGUCUUCCUACAGCUGCUCGCACUGACCUGUGGGAACCUGUGGGUCAUCCCCAGGC,0.334
CCAAACUGGACCCCUUCUUCAGACCCCCACAAACACCCCAGCUUUCUGGCUUUUCUGAGGGCUAGGGCAUGGUGCCCACCUCUCAAGUAUAAGAAACUGCAUCCUGCCUC,0.64
GACUCUGGGCCCACAGCGGGGAGGCCAAGAGGGGCCCUGUGGACUUUCACCCAGCACUGUGGGGGCCUUCAGACUCUGGGGCAGCAGACAUGCUGCUUCCCAUCAGCCAG,0.537
UUUGGAAAUAACCAGGGUUAAAGUUUUUAAUUUCUCAGGAAGAGCUCUUCAGCAUGGCAGGACGUGUAAUGAGGGCUUUCGCAAGUCCUUCAGCGCUGCAGAGCAGUAAG,0.787

# Set 6
# Target: Replicase polyprotein 1ab, polymerase (rep, Severe acute respiratory syndrome coronavirus 2, UniProt P0DTD1)
# Effect on: enzyme activity
# Mode: inhibitor
# Concentration: 20 µM
SMILES,inhibition [%]
CC1=C(C(=O)OC(C)C)C(c2cccc([N+](=O)[O-])c2)C(C(=O)OC2CN(C(c3ccccc3)c3ccccc3)C2)=C(N)N1 (stereo not drawn),-6.08
c1cc(Cc2cnc[nH]2)ccn1,1.43
CCOc1ccccc1C(=O)O,-0.8
CC1(C)Cc2c(-c3ccccc3)c(-c3ccc(Cl)cc3)c(CC(=O)O)n2C1,-7.39
N[C@@H](CSCCCO)C(=O)O,-7.05
CC#CC(=O)N1CCC[C@H]1c1nc(-c2ccc(C(=O)Nc3ccccn3)cc2)c2c(N)nccn12,0.86
Cc1cnc(Nc2ccc(OCCN3CCCC3)cc2)nc1Nc1cccc(S(=O)(=O)NC(C)(C)C)c1,4.6
COc1c(Nc2ccc(S(C)(=O)=O)nc2C)ncnc1OC1CCN(C(=O)OC(C)C)CC1,-12.2
N#C[C@H](O[C@@H]1O[C@H](CO[C@@H]2O[C@H](CO)[C@@H](O)[C@H](O)[C@H]2O)[C@@H](O)[C@H](O)[C@H]1O)c1ccccc1,3.51
Cc1ccc(Sc2cncc3sc(C(N)=O)cc23)cc1,-0.74
CS(=O)(=O)Nc1ccc2oc3c(OC(F)F)ccc(C(=O)Nc4c(Cl)cncc4Cl)c3c2c1,6.68
CC[C@@]1(O)C(=O)OCc2c1cc1n(c2=O)Cc2cc3c(N)cccc3nc2-1,6.33
CC(=O)Oc1cc(C(F)(F)F)ccc1C(=O)O,-7.09
CCN(C)C(=O)Oc1cccc([C@H](C)N(C)C)c1,-5.27
CC1=N[C@H](C(=O)O)CCN1,1.1
O=S(=O)(c1ccccc1)c1cnc2c(N3CCNCC3)cccc2c1,-14.1
NC(=O)N1c2ccccc2CC(O)c2ccccc21 (stereo not drawn),-5.01
COc1cc(N)c(Cl)cc1C(=O)NC1CN2CCC1CC2 (stereo not drawn),0.26
c1ccc(COCCCc2c[nH]cn2)cc1,1.77
O=C(O)c1cc2cc(Cc3cccnc3)ccc2o1,5.24
CC[C@@H](NC(C)C)[C@@H](O)c1ccc(O)c2[nH]c(=O)ccc12,-3.32
O=C(CCBr)N1CCN(C(=O)CCBr)CC1,-1.63
Cn1c(=O)c2c(ncn2CC(=O)Nc2ccc(-c3ccccc3)nn2)n(C)c1=O,-12.9
Clc1cccc(-c2nnnn2Cc2cccnc2)c1Cl,-23.2
COc1ccc(CC2NCCc3cc(OC)c(OC)cc32)cc1OC (stereo not drawn),-1.44

# Repeated from above (set 6):
SMILES,inhibition [%]
c1cc(Cc2cnc[nH]2)ccn1,1.43
CCOc1ccccc1C(=O)O,-0.8
CC1(C)Cc2c(-c3ccccc3)c(-c3ccc(Cl)cc3)c(CC(=O)O)n2C1,-7.39
N[C@@H](CSCCCO)C(=O)O,-7.05
CC#CC(=O)N1CCC[C@H]1c1nc(-c2ccc(C(=O)Nc3ccccn3)cc2)c2c(N)nccn12,0.86
